Published values of several laboratories.
Each line is one published result; not all experiments were run side by side. Several values in a cell are separate wells, animals, samples, runs or records. ± gives the spread as reported.

Compound = C[C@H](CCC(=O)O)[C@H]1CC[C@H]2[C@@H]3[C@H](O)C[C@@H]4C[C@H](O)CC[C@]4(C)[C@H]3C[C@H](O)[C@]12C; system = healthy human volunteers, plasma; setting = dose not given, 0 h, baseline phase, no drug; plasma concentration = 60.1 ± 20.2 nM
Compound = COc1cc2c(cc1OC)CN(CCc1ccc(NC(=O)c3cc(OC)c(OC)cc3NC(=O)c3cnc4ccccc4c3)cc1)CC2; system = human, plasma; setting = intravenous infusion, 5.9 mg/kg, 90 min; plasma concentration = 3610 nM
Compound = C[C@H]1O[C@@H](O[C@H]2CC[C@@]3(C)[C@@H](CC[C@]4(C)[C@@H]3C=C[C@]35OC[C@@]6(CCC(C)(C)C[C@H]63)[C@@H](O)C[C@]54C)[C@]2(C)CO)[C@H](O)[C@@H](O[C@@H]2O[C@H](CO)[C@@H](O)[C@H](O)[C@H]2O)[C@H]1O; test = UHPLC-MS/MS; system = mouse, plasma; setting = oral, 50 mg/kg, 2 h; plasma concentration = 4.79 ng/mL
Compound = Cc1c(-c2ccc(N3CCc4cccc(C(=O)Nc5nc6ccccc6s5)c4C3)nc2C(=O)O)cnn1CC12CC3(C)CC(C)(C1)CC(OCCNCC[C@H](O)CO)(C3)C2; system = anaesthetized male beagle dog; setting = iv infusion, 0.01 mg/kg/min, 135 min; plasma concentration = < 2 ng/mL
Compound = CN1CCN(c2ccc(OC(F)(F)F)c(Nc3ncc4c(n3)-c3c(c(C(N)=O)nn3CCO)CC4)c2)CC1; test = LC-MS/MS; system = human, plasma; setting = oral, 12 mg/m2, 24 h post-dose; plasma concentration = 21.2 ng/mL and 12.9 ng/mL and 34 ng/mL and 30.3 ng/mL and 28.1 ng/mL
Compound = C[C@H](CCC(=O)NCCS(=O)(=O)O)[C@H]1CC[C@H]2[C@@H]3CC[C@@H]4C[C@H](O)CC[C@]4(C)[C@H]3C[C@H](O)[C@]12C; system = healthy human volunteers, plasma; setting = dose not given, 0 h, control phase, probe drugs alone; plasma concentration = 42.8 ± 19.7 nM
Compound = CCOCc1nc(O)c(-c2nnc(Cc3ccc(Cl)cn3)o2)c(O)c1-c1c(OC)cccc1OC; system = anaesthetized rats, plasma; setting = intravenous infusion, 1 µg/kg/min for 15 min, 20 min washout; plasma concentration = 115 ± 58 nM
Compound = O=C(O)CCCCCCCCC(=O)O; system = healthy human volunteers, plasma; setting = dose not given, 0 h, control phase, probe drugs alone; plasma concentration = 27.3 ± 2.4 nM
Compound = CCn1c(C(=O)N(C2CC2)C2CC2)cc2c3c(ncn3C)c(Nc3cc(C)n(C)n3)nc21; system = cancer patients; setting = oral, 200 mg single dose, day 1, 8.0 h; plasma concentration = 932 ng/mL
Compound = Cc1c(C(=O)O)ccc2c3n(nc12)[C@@H]1[C@H](C3)N(CC2CC2)[C@@]2(C(=O)Nc3cc(Cl)ccc32)[C@H]1c1cccc(Cl)c1F; system = female BALB/c nude mice, plasma; setting = oral, 2 mg/kg once daily, 31 h, SJSA-1 tumour-bearing; plasma concentration = 372 nM and 688 nM and 396 nM and 414 nM and 265 nM
Compound = C[C@H](CCC(=O)O[C@@H]1O[C@H](C(=O)O)[C@@H](O)[C@H](O)[C@H]1O)[C@H]1CC[C@H]2[C@@H]3[C@H](O)C[C@@H]4C[C@H](O)CC[C@]4(C)[C@H]3CC[C@]12C; system = healthy human volunteers, plasma; setting = dose not given, 0 h, control phase, probe drugs alone; plasma concentration = 19.3 ± 1.6 nM
Compound = COc1cccc(-c2n[nH]c(SCc3ccccn3)n2)c1OC; system = Sprague-Dawley rats, both sexes; setting = oral dietary, 100 mg/kg/day, day 7, 6 h; plasma concentration = 4720 ng/mL
Compound = CCN1CCN(Cc2ccc(NC(=O)c3ccc(C)c(NC(=O)c4cncc(-c5cccs5)c4)c3)cc2C(F)(F)F)CC1; system = C57BL/6 mouse, plasma; setting = intraperitoneal, 20 mg/kg, 24 h, single dose; plasma concentration = not detected
